Assay results pooled from the literature.
Parts stem from different laboratories: compare values within a part only. Changes are numbered by the printed parent chain.

Series 1
Target: Sal-like protein 4, full length isoform B (SALL4, Homo sapiens, UniProt Q9UJQ4-2, residues 1-616)
Method: universal PBM
Molecule type: double-stranded DNA, one strand shown
Medium: in vitro
Tested at: not given
Setting: 8-mer, flanks averaged, mean of replicates
Direction: higher = stronger binding
Construct (chain): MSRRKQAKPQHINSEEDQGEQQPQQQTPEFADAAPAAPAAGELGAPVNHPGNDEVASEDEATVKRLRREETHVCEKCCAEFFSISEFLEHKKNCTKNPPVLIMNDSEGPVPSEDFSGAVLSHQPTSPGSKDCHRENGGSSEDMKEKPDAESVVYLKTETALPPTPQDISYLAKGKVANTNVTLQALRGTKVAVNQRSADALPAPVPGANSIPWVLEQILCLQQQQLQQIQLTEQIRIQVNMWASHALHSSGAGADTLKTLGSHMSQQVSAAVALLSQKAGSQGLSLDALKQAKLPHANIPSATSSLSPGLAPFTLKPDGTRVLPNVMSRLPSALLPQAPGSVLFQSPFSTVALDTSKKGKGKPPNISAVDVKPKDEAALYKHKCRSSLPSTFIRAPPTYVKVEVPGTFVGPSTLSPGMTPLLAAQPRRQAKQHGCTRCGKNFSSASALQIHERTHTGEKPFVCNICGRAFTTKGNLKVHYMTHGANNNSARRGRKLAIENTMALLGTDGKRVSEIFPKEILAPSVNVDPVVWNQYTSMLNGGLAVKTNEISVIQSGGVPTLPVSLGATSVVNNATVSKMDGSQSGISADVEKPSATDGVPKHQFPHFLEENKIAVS
| Strand | E-score |
| --- | --- |
| CAAATACG | 0.00102 |
| CCTACTGC | -0.0693 |
| TGCACTAA | 0.187 |
| GTTAGTCA | 0.0528 |
| CTGGTGGA | -0.199 |
| CCTGTCCC | -0.119 |
| CTGAACCC | -0.296 |
| CAAGCATA | 0.134 |
| CACGCACG | -0.189 |
| ACTCATCG | 0.0318 |
| AGACGGAC | -0.208 |
| CCGAACAA | 0.0522 |
| ACCACTCT | -0.0967 |
| AAGTGTCC | -0.0113 |
| CATCCCAG | -0.0824 |
| CAGGTTAG | -0.214 |
| ACCGAAGA | 0.0591 |
| AGCTCTGC | -0.258 |
| AAGCCATG | -0.0825 |

Series 2
Target: CCNF, cyclin fold, Cln2 fusion (human)
Method: yeast growth competition, sequencing
Medium: yeast
Setting: strong parent motif
Relative to: not given
Direction: higher = stronger binding
Parent: SAMHD1 docking peptide (human); ASKSRVQLFKDDP
| Variant | normalised enrichment score |
| --- | --- |
| ASKSRVQLFDDDP [K10D] | -0.0454 |
| ASESRVQLFKDDP [K3E] | 0.0597 |
| ASKSRVQIFKDDP [L8I] | -0.0715 |
| ASKSRVQLKKDDP [F9K] | -0.338 |
| ASKSPVQLFKDDP [R5P] | -0.172 |
| ASKSRTQLFKDDP [V6T] | 0.958 |
| ASKSGVQLFKDDP [R5G] | 0.533 |
| ASKSRVQLLKDDP [F9L] | 0.196 |
| ASKSRVQLFKYDP [D11Y] | 1.25 |
| ASKSRVKLFKDDP [Q7K] | 0.76 |
| ASKSRYQLFKDDP [V6Y] | 0.216 |
| ASKSRVQHFKDDP [L8H] | -0.123 |
| ASKSMVQLFKDDP [R5M] | 0.0186 |
| ASKSFVQLFKDDP [R5F] | 0.0242 |
| ASKSRVQDFKDDP [L8D] | -0.143 |
| ASKSWVQLFKDDP [R5W] | 0.592 |
| ASYSRVQLFKDDP [K3Y] | 1.54 |
| ASKSRVQYFKDDP [L8Y] | 0.205 |
| ASKSRVQLFKDIP [D12I] | 1.52 |
| ASKSKVQLFKDDP [R5K] | 0.89 |
| ASKSIVQLFKDDP [R5I] | 0.577 |
| ASKSRVQLAKDDP [F9A] | -0.161 |
| ASKSRVQGFKDDP [L8G] | -0.215 |
| ASKSRSQLFKDDP [V6S] | -0.3 |

Series 3
Target: MAFK, bZIP domain (human)
Method: DHFR protein complementation
Medium: yeast
Setting: single substitutions, most at no-binding floor
Relative to: wild-type JUN-FOS pair
Direction: higher = stronger binding
Parent: JUN, bZIP domain (human); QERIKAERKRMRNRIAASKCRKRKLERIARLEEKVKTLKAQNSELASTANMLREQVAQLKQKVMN; partner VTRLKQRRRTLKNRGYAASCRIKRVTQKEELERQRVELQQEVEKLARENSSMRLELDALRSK
| Variant | binding fitness [natural log] |
| --- | --- |
| N42S | -1.47 |
| M51Q | -1.38 |
| Q55M | -1.53 |
| V56H | -1.46 |
| Q55A | -1.43 |
| K39R | -1.47 |
| A29M | -1.35 |
| Q58P | -1.4 |
| E54K | -1.44 |
| N42R | -1.13 |
| L52P | -1.48 |
| A46V | -1.46 |
| I28L | -1.51 |
| K34R | -1.45 |
| I28Q | -1.5 |
| L45D | -1.47 |

Series 4
Target: Ras GTPase-activating protein-binding protein 1, full length (G3BP1, Homo sapiens, UniProt Q13283)
Chain of UniProt Q13283 (whole entry, looked up): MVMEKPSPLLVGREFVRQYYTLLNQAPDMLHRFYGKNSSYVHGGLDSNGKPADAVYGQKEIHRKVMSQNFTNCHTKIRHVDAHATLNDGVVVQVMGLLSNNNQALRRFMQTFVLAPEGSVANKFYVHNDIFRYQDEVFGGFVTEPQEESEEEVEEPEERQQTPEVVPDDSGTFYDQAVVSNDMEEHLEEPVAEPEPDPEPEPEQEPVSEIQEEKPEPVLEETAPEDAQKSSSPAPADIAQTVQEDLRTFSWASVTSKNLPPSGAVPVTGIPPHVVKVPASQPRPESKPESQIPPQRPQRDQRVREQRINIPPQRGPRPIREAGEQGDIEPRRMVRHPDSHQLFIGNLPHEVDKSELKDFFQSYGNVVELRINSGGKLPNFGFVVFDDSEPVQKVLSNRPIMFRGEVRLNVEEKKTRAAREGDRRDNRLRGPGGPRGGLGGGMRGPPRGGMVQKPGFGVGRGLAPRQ
Method: RNA Bind-n-Seq
Molecule type: RNA
Medium: in vitro
Tested at: 200 nM
Setting: whole 134-nt RNA, ends assumed
Added: 150 mM KCl
Relative to: input library
Direction: higher = stronger binding
Constant ends, left off below: GGGAGUUCUACAGUCCGACGAUC … UGGAAUUCUCGGGUGUCAAGG
| Strand | log2 enrichment |
| --- | --- |
| AAGUCCUGUGCUACACAUCGUAUGUACCGAAUCGGGGUGGGGUUUGGGGUUUGGGGAAAGUAUUAUGUUACGCCGUUCGGAUCUGCACUU | 1.02 |
| UGUGCUACACAUCGUAUGUACCGAAUCGGGGCCCCCCCGGGCCCCCCCGGGGCCCCCCCGGGAAAGUAUUAUGUUACGCCGUUCGGAUCU | -1.7 |
| GUCCUGUGCUACACAUCGUAUGUACCGAAUCGGCCCCCCGGCCCCCCGGCCCCCCGGGAAAGUAUUAUGUUACGCCGUUCGGAUCUGCAC | 0.164 |
| UAACUUUAGAGGAGGAUCUGAAGGAUAUGGCAGUGGACGUGGAUUUGGGGAUGGCUAUAAUGGGUAUGGAGGAGGACCUGGAGGUGGCAA | 0.385 |
| UGUGUGUUAUAUAUUUAUUUUUAAUUGCAGAUGACAGGAUUGGACAUUGAGAAGGACCAGAUUAUUGAGAUGGCCUGUCUGAUAACUGAC | -1.95 |
| CAAGUCCUGUGCUACACAUCGUAUGUACCGAAUCGGCCCGGGGCCCGGCCCGGGGAAAGUAUUAUGUUACGCCGUUCGGAUCUGCACUUC | -0.742 |
| UCAAGUCCUGUGCUACACAUCGUAUGUACCGAAUCGGGGUUGGUUGGGUUGGGGAAAGUAUUAUGUUACGCCGUUCGGAUCUGCACUUCC | 0.593 |
| CACAGACAACACGCACCCACACAGACACACAGGGAAGGGGUUGGGAUGGGGACAGGGUGCACAGCAGGGCGGGGUAGGACCCCAGCCCCU | 1.78 |
| UGGGAGGUGGAUUUUGUUUAUUUUUUUAGCUCAUUUCCAGGGGUGGGAAUUUUUUUUUAAUAUGUGUCAUGACUAAAGUUGUUUUUGAAA | 0.5 |
| CCUGUGCUACACAUCGUAUGUACCGAAUCGGGGUUUUUUUGGUUUUUUUGGUUUUUUUGGAAAGUAUUAUGUUACGCCGUUCGGAUCUGC | -0.761 |

Series 5
Target: ABI1, truncated, D143A, DHFR fusion (Arabidopsis thaliana)
Method: DHFR PCA, deep sequencing
Medium: yeast
Setting: methotrexate growth selection, single substitutions
Added: (+)-ABA 0.0091 µM
Relative to: wild-type fitted maximum
Direction: higher = stronger binding
Parent: PYL1, truncated, DHFR fusion (Arabidopsis thaliana); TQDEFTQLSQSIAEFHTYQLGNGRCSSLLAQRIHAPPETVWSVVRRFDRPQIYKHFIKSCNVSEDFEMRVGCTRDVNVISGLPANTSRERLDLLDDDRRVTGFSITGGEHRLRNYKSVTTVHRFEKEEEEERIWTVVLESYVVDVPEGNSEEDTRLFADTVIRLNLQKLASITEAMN
| Variant | relative binding score |
| --- | --- |
| C72P | -3.92% |
| M68R | -1.9% |
| R163C | 2.35% |
| E89F | 8.26% |
| K54S | -3.59% |
| Q167S | 12.9% |
| R132T | 43.2% |
| S9F | 12.3% |
| R46G | -3.68% |
| E125V | 40.2% |
| D65C | 1.47% |
| Y53F | 3.4% |
| G81W | 3.92% |
| I33M | 2.01% |
| R99T | 1.54% |
| C25W | -1.36% |
| G107R | 3.2% |
| L8G | -4.07% |
| S11L | 1.84% |
| F157Q | -0.00937% |
| S11D | 25% |
| V118L | -1.79% |
| E109M | -1.79% |
| T119A | 0.838% |

Single results of other studies
| Molecule | target | test | system | setting | scale | quantity | value |
| --- | --- | --- | --- | --- | --- | --- | --- |
| PhoQ, residues 284 288 289 292 302 303 SLSLLA | PhoP, residues 12 14 15 18 19 NQGLL (Escherichia coli, UniProt P23836) | Sort-seq, measured: YFP reporter | E. coli | PhoQ-PhoP variant library, added: 10 µM Mg2+ | relative to: high Mg2+ state, higher = stronger signaling | fold induction | 14.7 |
